# Assay results from different studies.
# Each numbered part is a random draw from the data of one study; scales do not carry over between parts. Changes are numbered by the printed parent chain.

# Sample 1
# Target: CCNB3, cyclin fold, Cln2 fusion (human)
# Technique: yeast growth competition, sequencing
# Matrix: yeast
# Notes: weak parent motif
# Reference: not given
# Reading: higher = stronger binding
# Starting sequence: CDC25A docking peptide (human); PPHRRRLLFACSP
Variant,normalised enrichment score
L8I,0.227
P2N,0.0339
L7E,0.0584
R5A R6A L7A L8A,0.222
L7Q,-0.0979
R6K,0.356
H3T,0.276
F9I,0.228
C11H,0.121
R4A,0.544
F9N,0.289
R5P,-0.0609
R6W,0.687
H3D,0.568
R6F,-0.135
R6S,0.189
R5L,0.521
S12K,-0.00652
L8D,0.544
P13M,-0.0394
S12Y,0.536
L7P,-0.0951
H3E,-0.0761
R4G,0.447
R5E,0.0446

# Sample 2
# Target: ABI1, truncated, D143A, DHFR fusion (Arabidopsis thaliana)
# Technique: DHFR PCA, deep sequencing
# Matrix: yeast
# Notes: methotrexate growth selection, single substitutions
# Added: (+)-ABA 0.11 µM
# Reference: wild-type fitted maximum
# Reading: higher = stronger binding
# Starting sequence: PYL1, truncated, DHFR fusion (Arabidopsis thaliana); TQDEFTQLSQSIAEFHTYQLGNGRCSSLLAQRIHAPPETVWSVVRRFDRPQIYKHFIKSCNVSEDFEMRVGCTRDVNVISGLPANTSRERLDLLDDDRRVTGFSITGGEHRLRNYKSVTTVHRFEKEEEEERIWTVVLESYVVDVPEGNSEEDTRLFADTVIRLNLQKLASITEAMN
Variant,relative binding score [%]
E127P,45.6
H110N,61
R98Q,13.5
E174V,6.02
Y141H,10.9
S104K,1.61
T135W,-4.7
E174P,3.35
R98D,-7.8
R45A,-4.96
R98S,-6.94
V161P,5.16
F66V,0.64
S140H,8.2
L138W,-2.63
M68H,3.82
D92F,-5.31
R32H,17.7

# Sample 3
# Target: RING finger protein unkempt homolog, zinc fingers 1-6, GST-SBP tag (UNK, Homo sapiens, UniProt Q9C0B0, residues 30-357)
# Technique: RNA Bind-n-Seq
# Form: RNA
# Matrix: in vitro
# Tested at: not given
# Notes: RNA with constant flanks, human-mouse chimeric sites, ends assumed
# Reference: input RNA pool
# Reading: higher = stronger binding
# Shared flanks, not repeated: GGGAGUUCUACAGUCCGACGAUC … CAACAGAGGAUUGAGCAUCA
# Residues (chain): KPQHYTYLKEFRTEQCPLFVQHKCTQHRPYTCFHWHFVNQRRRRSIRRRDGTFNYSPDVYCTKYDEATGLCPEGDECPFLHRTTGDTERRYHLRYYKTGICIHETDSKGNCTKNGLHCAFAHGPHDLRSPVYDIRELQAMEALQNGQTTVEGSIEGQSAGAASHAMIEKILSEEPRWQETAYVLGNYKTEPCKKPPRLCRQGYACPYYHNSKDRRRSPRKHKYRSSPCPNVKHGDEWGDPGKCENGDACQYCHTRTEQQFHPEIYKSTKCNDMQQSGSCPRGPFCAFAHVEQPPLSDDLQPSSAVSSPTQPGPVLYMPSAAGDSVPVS
Strand,bound/input enrichment
GGUGGGGUGGUCAUUGCCGUUUGAGCUGCUGAUUUUCAUGAGUCGCCCAUUCAGAACUCGUGUAGGGUUGACAAUGUGGGGGGGUGGGGGAUCCAGCUAUUUUUUUUAUUUUCAAGUCCA,2.29 ratio
GUACUGCAGCAGCAGGGCAAGCUGCAGGAAGCUCUGAUGCAUUAUAAAGAAGCCAUACGAAUCAGUCCUACCUUUGCUGAUGCCUACUCUAAUAUGGGAAACACUCUAAAGGAGAUGCAG,0.178 ratio
GAUCCACAGUGGUCUGAGGAGCAACUCAUUGCUGCAAAAUUCUGUUUUGCUGGCCUUGUUAUAGGGCAGACUGAAGUGGACAUCAUGAGUCAUGCUACACAAGCUAUUUUUGAAAUUCUG,0.206 ratio
UACAUUUUAUUGUUGAGUUUCAUUUUCAUAUAUUCUUGUAGUGUCUGCUUGCCUGUGACUUCUGGUAAAAUAAAAUAUUAAAAUUACAAUAUUUUAGCAUGGUAUUUAACAUUUUCUAAA,1.34 ratio
AUGGAGAAGGAUUCUCUGCCCCGCUUUGUGCGCUCUGAAUUUUAUAAGGAGUUAAUCAAGUAGUAAUCUGGUCAGGCUUCCAAAAGUUGCCCUGUGAGUUGAGUUACAUCCUUUGUAGCA,0.314 ratio
CUGGCCUGGCCCUCCCCUCUAGUGACCUUCUCUGCAUUCACUGCUUCUGCAUCAGAUACUUUCAGCUGCAACUCCCUACUGGGUGGGGCACCCAUUUCAGGCAGAAGGUUUUGGUACCCU,0.566 ratio
GCUCCUCCCCGCUCUGCCCCUGCCUGCCACUGGGCUGGGACCAGAAUCCAGCUUUCUUUUAAAACUCUCAGUGUAACUGUAUCCCGUGACAUUUCAUUUUUUUUUUAUAGUGUAUUUUUU,20.2 ratio
CAGCCUCAGAGCCCAGACUUCCUGGAUAUUACCAACCCUAAAGCGGUAUUAGAAAAUGCACUUAGGAACUUCGCCUGUCUGACGACUGGAGAUGUGAUUGCUAUCAACUACAAUGAGAAG,0.661 ratio
UACUACUAUGAUGGUGAUAUUGGCAAUUAUUAUUAUGGACAGGGUCAUCCCAUGAAGCCUCAUAGAAUCCGGAUGACCCAUAACUUGCUGCUAAAUUAUGGUUUAUACCGAAAAAUGGAA,0.274 ratio
GGAAGUACAAUGAUGGAAAUAGAUGGCGACAAAGGCAAGCAGGGCGGGCCCACCUACUACAUAGACACCAAUGCCCUCCGCGUGCCCAGGGAGAAUAUGGAGGCCAUCUCACCACUCAAG,0.221 ratio
AUGGAACAUUUCGAUGCGUCACUCAGUACCUAUUUCAAGGCCUUCCUGGGCCCCCGAGAUACUAGAGUCAAAGGAUGGUUCCUCCUGGACAAUUACAUCCCUACGUUUAUCUGCUCUGUU,0.0729 ratio

# Sample 4
# Target: Histone acetyltransferase KAT6A, winged helix 1, GST fusion (KAT6A, Homo sapiens, UniProt Q92794, residues 1-85)
# Technique: protein binding microarray
# Form: double-stranded DNA, one strand shown
# Matrix: in vitro
# Tested at: not given
# Notes: 8-mer, flanks averaged, mean of 2 arrays, mostly near background
# Reference: not given
# Reading: higher = stronger binding
# Residues (chain): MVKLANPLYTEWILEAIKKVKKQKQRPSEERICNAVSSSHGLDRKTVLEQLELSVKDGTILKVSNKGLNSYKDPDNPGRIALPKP
Strand,E-score
GTGGATGA,-0.132
AGGGCCCA,-0.238
CACACTAG,0.0731
CCGTTTTA,0.167
AATAATCT,-0.196
AGGGATCA,-0.215
ATTCACAA,-0.181
ATATTGTA,0.0192
GAGGACAC,-0.0831
CAGCTTAA,-0.0953
AGTAGCGA,-0.0465
ATACCATG,-0.108
CAAGGTGG,-0.151
GATCTCTA,-0.0469
CACATGAC,-0.134
ATCATGGC,-0.104
TGGCCACA,-0.251
ATTTGTGG,-0.152
GATCGCAC,0.0867
GACCTATC,-0.0219
CCCCGCAC,0.228
AGCCGGTA,0.255
CAACAAAC,-0.0064
